Measured values gathered from unrelated publications.
Parts stem from different laboratories: compare values within a part only. Positions count from the first letter of the parent shown.

Sample 1 — technique: RNA Bind-n-Seq; form: RNA; sample: in vitro; tested at: 200 nM; setting: whole 134-nt RNA, ends assumed; together with: 150 mM LiCl; relative to: input library; reading: higher = stronger binding; quantity: log2 enrichment; library: 7-deaza-guanosine replaces G
Target: Fragile X messenger ribonucleoprotein 1, C-terminal low-complexity region (Fmr1, Mus musculus, UniProt P35922)
Shared flanks, not repeated: GGGAGUUCUACAGUCCGACGAUC … UGGAAUUCUCGGGUGUCAAGG
UCCUCAAGUCCUGUGCUACACAUCGUAUGUACCGAAUCGGGUGGUGGUGGGAAAGUAUUAUGUUACGCCGUUCGGAUCUGCACUUCCAGC: 0.0771
ACCAUGCAGGUGGGCAUCUUUGGGAAGUGGGGCAAGGGGGGGAUAGAGAGGGGGGUAACACUUUGGGAACAGGUGGUCCCAGGUCGUUUC: 0.859
GUGCUACACAUCGUAUGUACCGAAUCGGGGUUUUUUUGGGGUUUUUUUGGGGAAAAAAAGGGGAAAGUAUUAUGUUACGCCGUUCGGAUC: 0.443
UACCAAUUGGCCUUUAUUGACUGUAUCCAAAGGAUUUUUUGAAGGCACCAUUGCCAGCAAAGGUAAGUACCUAUUUCUCCCAUAGCACUU: 0.0435
GCAGGAAGUAAAAACAAAUGGAAAUGCUUCGGAUAGUGGCAGGGGUGGGGGUUGCUAAGGAAAGGGUGGGAUGGGAGUGGGUAAAAAGUU: 1.27
CCUGUGCUACACAUCGUAUGUACCGAAUCGGGGAAAAAAGGGGAAAAAAGGGAAAAAAGGGAAAGUAUUAUGUUACGCCGUUCGGAUCUG: 0.642
UCCUGUGCUACACAUCGUAUGUACCGAAUCGGGGAAAAAAAGGGGAGGGGUUUUUGGGGAAAGUAUUAUGUUACGCCGUUCGGAUCUGCA: 0.402
CAAGUCCUGUGCUACACAUCGUAUGUACCGAAUCGGUUUUUGGUUUUUGGAAAGGAAAGUAUUAUGUUACGCCGUUCGGAUCUGCACUUC: -1.11
UCAAGUCCUGUGCUACACAUCGUAUGUACCGAAUCGGGUUUGGGUGGGAAAGGGAAAGUAUUAUGUUACGCCGUUCGGAUCUGCACUUCC: -1.87
UAACUUUAGAGGAGGAUCUGAUGGAUAUGGCAGUGGACGUGAAUUUGGGGAUGGCUAUAAUGGGUAUGGAGGAGGACCUGGAGGUGGCAA: -0.783
UCAAGUCCUGUGCUACACAUCGUAUGUACCGAAUCGGUUUGGUUUGGGUUUGGGAAAGUAUUAUGUUACGCCGUUCGGAUCUGCACUUCC: -2.14

Sample 2 — technique: RNA Bind-n-Seq; form: RNA; sample: in vitro; tested at: 365 nM; relative to: no-protein control; reading: higher = stronger binding; quantity: RBNS enrichment (R)
Target: RNA binding protein fox-1 homolog 2, RRM domain, GST-SBP tag (RBFOX2, Homo sapiens, UniProt O43251-10, residues 100-194)
Setting: natural RNA segment, single round, ends assumed
Shared flanks, not repeated: GGGAGUUCUACAGUCCGACGAUC … UGGAAUUCUCGGGUGCCAA
Residues (chain): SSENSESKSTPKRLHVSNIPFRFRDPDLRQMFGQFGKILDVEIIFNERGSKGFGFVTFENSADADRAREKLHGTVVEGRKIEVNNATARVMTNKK
GCCCUUCUUUCAAGGCAGAUUGAUAGGUCUUUAGAACAAACAUUUCACAGGGAUCAUUCUCUUCUCUCCUUUUUAAUGAAGUCCAAAAUCACAGGAAGUGAAGAACAUUU: 0.354
ACAUUGCAUUUAGAAAGCUUUUGUUCUUGGAUAAAAAGUCAUACACUUUAAAAAAAAAAAAAACUUUUUCCAGGAAAAUAUAUUGAAAUCAUGCUGCUGAGCCUCUAUUU: 0.566
CCGCCUUUGGCAUUGUGUGUACAUCUGCAGUUUUGCAUGGUGGGUUGUUAAUAUUUCAAAUGUGUGGUUUAUGAAUACGUCUGUAUAAUCGGCUUCUGGAGUGAAACAGC: 0.753
ACUCAUGGAGCUUGUUUCAGCUCCUCACUUCUUGACUGUAUUUGUACUAUGUUGAAAAAAUAUCCUGUCCACAAAGACAUAAGCCUAACAACCUAGAAAAACAACAGGGU: 0.526
AUAUAUUUGCAUGUUCACUGACCCAGCCUGAGCUCUCCCCAGCCUCGUGGGUGGUGACUUUUCCUGCAGGGCGCACGCCCUGCUGCAGCCCCCUCCCCCGCAGCCCGGAA: 5.53
AAGCAUGUUUUUGUGGUUAUAAAAACACUUAAAAAUCCUGAUAAUUCUGGGCUUGUAUAAUGCCUGUUGAUCUUGCCCUCUUAAUCAGUUUAUUGUUAUUCACAAAUGCA: 12.4
UUAUUUUCUUUCUCAGGGUCCUUUCUUUGGUGGGGGUCCACUCCCCGAAAGAUGUUGUCAUUGGCAAUCUGCAGUUGCAAAGGGGGUAGGGUGGUCUCAGAAGGCACGAG: 0.492
UCGAUUUCAUGUCUGGGAGCCUGGACCAGGCUACCCGGGAAGUCAGGACCCUGAUCAUUCACUGUGACACCCCAGCCCUCCAAGGGUACCCCGGGAGACCACGUGACUCU: 0.198
UUAGCAAUAUUAGCAUUUCAAUCAGCGAUCUGAGUGUUAGUUGUUUUUCCUUUACAUUUCUAGUAGUUUCCUUACAGAAAGGACCUGCAUUUUUAUUAAUGUGUAGAUUU: 0.329
GGGAGGGACAGAUGAUUCUGUGAUGGCAUGGGUAGUGGGUAGUGACAGCCAUGUCUGCGACGAUCAGCCUCUGGAGGCUGAAUGGGAAGCAGAGCUUUCGACCCACUCUA: 1.53
GUAGCAGGAGGAUCUGAACUUUUCCUGGAGAGGAGGUGAUCGGGAUGCCAUUUGGCAGCUUAAGCACAUCCUGCCAGCAGGCUUUAAGUGGCUGUUCUAGGCAUAGCCCU: 0.356
AGCCCUGUGUGUGGAAUUCCAGAUUUUUCUUUUCCUUUAAUAUCACUUUAUGGGUUCUAGAUGAUGUUUUGACAUGUGCUCAACCUUGAUUUGUUGAUUUAGUUAAAAUA: 0.706

Sample 3 — target: CCNE1, cyclin fold, Cln2 fusion (human); technique: yeast growth competition, sequencing; sample: yeast; setting: weak parent motif; relative to: not given; reading: higher = stronger binding; quantity: normalised enrichment score
Starting sequence: PKN2 docking peptide (human); VSAVQKLDFSDTM
VSAVQKLDNSDTM [F9N]: 0.486
VSAVQCLDFSDTM [K6C]: 0.683
VSNVQKLDFSDTM [A3N]: -0.0804
VSAVQKLDFSQTM [D11Q]: -0.103
VSAVQKLDFMDTM [S10M]: 0.624
VSADQKLDFSDTM [V4D]: 0.315
VSAVQRLDFSDTM [K6R]: 0.804
VSAVQKLDFSDTA [M13A]: 0.545
VSAVQKDDFSDTM [L7D]: 0.114
VSAVQKLSFSDTM [D8S]: 0.241
VSAVQKMDFSDTM [L7M]: -0.211
VFAVQKLDFSDTM [S2F]: 0.54
KSAVQKLDFSDTM [V1K]: 0.421
VSAVQSLDFSDTM [K6S]: 0.85
VSAVQKLDFSDLM [T12L]: 1.18
VNAVQKLDFSDTM [S2N]: 0.649
SSAVQKLDFSDTM [V1S]: 1.07
VSAVQKLWFSDTM [D8W]: 0.761

Sample 4 — technique: DHFR PCA, deep sequencing; sample: yeast; together with: (+)-ABA 0.032 µM; relative to: wild-type fitted maximum; reading: higher = stronger binding; quantity: relative binding score
Target: ABI1, truncated, D143A, DHFR fusion (Arabidopsis thaliana)
Setting: methotrexate growth selection, single substitutions
Starting sequence: PYL1, truncated, DHFR fusion (Arabidopsis thaliana); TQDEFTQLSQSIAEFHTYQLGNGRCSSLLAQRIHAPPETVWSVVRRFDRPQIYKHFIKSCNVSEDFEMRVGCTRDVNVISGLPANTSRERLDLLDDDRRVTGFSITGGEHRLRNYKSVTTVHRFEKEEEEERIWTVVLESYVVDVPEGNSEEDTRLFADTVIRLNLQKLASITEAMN; partner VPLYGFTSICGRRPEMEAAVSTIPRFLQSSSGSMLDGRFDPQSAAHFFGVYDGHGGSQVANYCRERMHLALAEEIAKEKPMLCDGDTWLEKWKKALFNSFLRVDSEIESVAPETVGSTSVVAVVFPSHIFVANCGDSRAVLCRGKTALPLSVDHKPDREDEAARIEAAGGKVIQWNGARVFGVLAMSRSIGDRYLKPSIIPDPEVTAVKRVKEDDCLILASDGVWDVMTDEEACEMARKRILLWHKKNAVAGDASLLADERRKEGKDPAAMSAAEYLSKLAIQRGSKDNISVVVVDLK
F5P: 0.416%
T135V: -5.54%
E109K: 1.83%
I52P: -3.02%
R155S: 0.273%
V145R: -5.74%
G81F: -12.4%
T154D: -6.23%
L29I: 37.1%
R74I: -3.33%
E131Y: 18.7%
V161G: -5.71%
V118M: 4.61%
P146C: 16.2%
E89V: 3.14%
Q51N: 1.28%
S87K: 6.91%
R155G: -6.62%
T39M: 28%
T106P: 2.43%
D3N: -7.55%
T73G: -3.31%
R90Q: 1.23%
R46N: -15%
D3L: 14%

Sample 5 — target: UBE2R2 UBC core domain (UniProt Q712K3); technique: yeast two-hybrid; sample: yeast; setting: mostly zero background; relative to: not given; reading: higher = stronger interaction; quantity: lacZ reporter activity
B1: UHRF2 RING domain (UniProt Q96PU4); chain CGGDPEKKCHSCSCRVCGGKHEPNMQLLCDECNVAYHIYCLNPPLDKVPEEEYWYCPSCKTDSSEVVKAGER
B2: ZNF598 RING domain (UniProt Q86UK7); chain AAAPERGGGSCVLCCGDLEATALGRCDHPVCYRCSTKMRVLCEQRYCAVCREELRQVVFGK
B3: TRIM63 RING domain (UniProt Q969Q1); chain PMENLEKQLICPICLEMFTKPVVILPCQHNLCRKCANDIFQAANPYWTSRGSSVSMSGGRFRCPTCRHEVIMDRHGV
B4: ARK2C RING domain (UniProt Q6ZSG1); chain EGEESDTDEKCTICLSMLEDGEDVRRLPCMHLFHQLCVDQWLAMSKKCPICRVDIETQLGAD
Target sequence (chain): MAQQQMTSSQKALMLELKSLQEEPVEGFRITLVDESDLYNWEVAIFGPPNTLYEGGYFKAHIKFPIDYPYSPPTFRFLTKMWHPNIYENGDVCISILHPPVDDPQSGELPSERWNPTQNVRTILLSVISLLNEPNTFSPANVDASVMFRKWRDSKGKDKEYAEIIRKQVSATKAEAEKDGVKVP
QLRRLQEERTCKVCMDKEVSIVFIPCGHLVVCKDCAPSLRKCPICRSTIKGTVRTF (BIRC3 RING domain (UniProt Q13489)): 0
B1 (UHRF2 RING domain): 0
PEELQAMDNVCIICREEMVTGAKRLPCNHIFHTSCLRSWFQRQQTCPTCRMDVLRASLPA (SYVN1 RING domain (UniProt Q86TM6)): 0
B2 (ZNF598 RING domain): 0
B3 (TRIM63 RING domain): 0
YWAMDSTFELCKICAESNKDVKIEPCGHLLCSCCLAAWQHSDSQTCPFCRCEIKGWEAVS (CBLC RING domain (UniProt Q9ULV8)): 0
DDENSDNSNECVVCLSDLRDTLILPCRHLCLCTSCADTLRYQANNCPICRLPFRALLQIR (MGRN1 RING domain (UniProt O60291)): 0
VTLSLTLPITCHICLGKVRQPVICINNHVFCSICIDLWLKNNSQCPACRVPITPENPCK (OBI1 RING domain (UniProt Q5W0B1)): 0
RLTMMWEEVTCPICLDPFVEPVSIECGHSFCQECISQVGKGGGSVCPVCRQRFLLKNLRP (TRIM21 RING domain (UniProt P19474)): 0
DAIPSLSECQCGICMEILVEPVTLPCNHTLCKPCFQSTVEKASLCCPFCRRRVSSWTRYH (RNF168 RING domain (UniProt Q8IYW5)): 0
B4 (ARK2C RING domain): 0
FASPPDSNFVCSVCHGVLKRPARLPCSHIFCKKCILRWLARQKTCPCCRKEVKRKKVVH (RNF151 RING domain (UniProt Q2KHN1)): 0

Excerpt of the above (sample 1):
GUGCUACACAUCGUAUGUACCGAAUCGGGGUUUUUUUGGGGUUUUUUUGGGGAAAAAAAGGGGAAAGUAUUAUGUUACGCCGUUCGGAUC: 0.443
UACCAAUUGGCCUUUAUUGACUGUAUCCAAAGGAUUUUUUGAAGGCACCAUUGCCAGCAAAGGUAAGUACCUAUUUCUCCCAUAGCACUU: 0.0435
GCAGGAAGUAAAAACAAAUGGAAAUGCUUCGGAUAGUGGCAGGGGUGGGGGUUGCUAAGGAAAGGGUGGGAUGGGAGUGGGUAAAAAGUU: 1.27
CCUGUGCUACACAUCGUAUGUACCGAAUCGGGGAAAAAAGGGGAAAAAAGGGAAAAAAGGGAAAGUAUUAUGUUACGCCGUUCGGAUCUG: 0.642
UCCUGUGCUACACAUCGUAUGUACCGAAUCGGGGAAAAAAAGGGGAGGGGUUUUUGGGGAAAGUAUUAUGUUACGCCGUUCGGAUCUGCA: 0.402
CAAGUCCUGUGCUACACAUCGUAUGUACCGAAUCGGUUUUUGGUUUUUGGAAAGGAAAGUAUUAUGUUACGCCGUUCGGAUCUGCACUUC: -1.11
UCAAGUCCUGUGCUACACAUCGUAUGUACCGAAUCGGGUUUGGGUGGGAAAGGGAAAGUAUUAUGUUACGCCGUUCGGAUCUGCACUUCC: -1.87
